Earlier results, collected from citations in different studies.
Compare with care: the assays were run in different laboratories. ± gives the spread as reported.
VIM-2: Metallo-beta-lactamase VIM-2 (VIM-2, Escherichia coli, UniProt Q5U7L7)
Sequence of UniProt P52699 (whole entry, looked up): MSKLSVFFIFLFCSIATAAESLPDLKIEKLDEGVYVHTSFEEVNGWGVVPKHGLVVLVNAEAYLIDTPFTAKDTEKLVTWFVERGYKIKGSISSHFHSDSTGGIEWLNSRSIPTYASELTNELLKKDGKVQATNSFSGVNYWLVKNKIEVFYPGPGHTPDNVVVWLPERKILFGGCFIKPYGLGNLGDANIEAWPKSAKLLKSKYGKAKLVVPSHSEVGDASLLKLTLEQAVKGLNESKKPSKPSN
Sequence of UniProt P41020 (whole entry, looked up): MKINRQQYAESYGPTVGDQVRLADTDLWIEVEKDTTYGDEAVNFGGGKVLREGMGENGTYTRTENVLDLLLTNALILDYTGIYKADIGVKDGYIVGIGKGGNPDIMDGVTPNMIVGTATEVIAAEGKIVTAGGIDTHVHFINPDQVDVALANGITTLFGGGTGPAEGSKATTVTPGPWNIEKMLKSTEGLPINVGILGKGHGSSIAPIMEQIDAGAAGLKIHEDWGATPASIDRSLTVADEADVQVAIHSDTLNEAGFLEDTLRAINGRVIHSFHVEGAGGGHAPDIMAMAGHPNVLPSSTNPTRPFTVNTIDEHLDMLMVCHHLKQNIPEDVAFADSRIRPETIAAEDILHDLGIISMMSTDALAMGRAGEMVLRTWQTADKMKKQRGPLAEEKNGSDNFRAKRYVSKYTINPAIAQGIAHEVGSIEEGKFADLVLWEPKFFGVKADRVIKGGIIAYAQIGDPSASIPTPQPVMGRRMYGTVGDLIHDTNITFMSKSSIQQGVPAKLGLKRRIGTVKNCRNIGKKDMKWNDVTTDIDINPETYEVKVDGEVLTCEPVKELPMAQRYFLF
Sequence of UniProt P31652 (whole entry, looked up): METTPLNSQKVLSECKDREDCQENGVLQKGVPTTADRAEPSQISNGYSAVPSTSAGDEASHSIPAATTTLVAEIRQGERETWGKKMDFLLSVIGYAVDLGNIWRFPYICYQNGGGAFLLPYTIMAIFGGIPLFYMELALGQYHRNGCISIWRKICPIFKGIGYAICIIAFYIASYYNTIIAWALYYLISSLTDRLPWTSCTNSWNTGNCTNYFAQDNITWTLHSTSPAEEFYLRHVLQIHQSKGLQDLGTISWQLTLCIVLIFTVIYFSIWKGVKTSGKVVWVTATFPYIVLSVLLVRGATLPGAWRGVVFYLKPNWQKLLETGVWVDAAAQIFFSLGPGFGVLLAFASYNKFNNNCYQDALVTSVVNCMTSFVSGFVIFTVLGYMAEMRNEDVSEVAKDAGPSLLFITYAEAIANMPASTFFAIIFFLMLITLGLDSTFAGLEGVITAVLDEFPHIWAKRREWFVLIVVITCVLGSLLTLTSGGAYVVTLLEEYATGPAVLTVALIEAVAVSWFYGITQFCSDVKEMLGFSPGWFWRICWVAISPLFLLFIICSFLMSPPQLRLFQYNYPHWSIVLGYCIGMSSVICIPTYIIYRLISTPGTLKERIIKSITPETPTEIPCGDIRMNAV
Sequence of UniProt Q04609 (whole entry, looked up): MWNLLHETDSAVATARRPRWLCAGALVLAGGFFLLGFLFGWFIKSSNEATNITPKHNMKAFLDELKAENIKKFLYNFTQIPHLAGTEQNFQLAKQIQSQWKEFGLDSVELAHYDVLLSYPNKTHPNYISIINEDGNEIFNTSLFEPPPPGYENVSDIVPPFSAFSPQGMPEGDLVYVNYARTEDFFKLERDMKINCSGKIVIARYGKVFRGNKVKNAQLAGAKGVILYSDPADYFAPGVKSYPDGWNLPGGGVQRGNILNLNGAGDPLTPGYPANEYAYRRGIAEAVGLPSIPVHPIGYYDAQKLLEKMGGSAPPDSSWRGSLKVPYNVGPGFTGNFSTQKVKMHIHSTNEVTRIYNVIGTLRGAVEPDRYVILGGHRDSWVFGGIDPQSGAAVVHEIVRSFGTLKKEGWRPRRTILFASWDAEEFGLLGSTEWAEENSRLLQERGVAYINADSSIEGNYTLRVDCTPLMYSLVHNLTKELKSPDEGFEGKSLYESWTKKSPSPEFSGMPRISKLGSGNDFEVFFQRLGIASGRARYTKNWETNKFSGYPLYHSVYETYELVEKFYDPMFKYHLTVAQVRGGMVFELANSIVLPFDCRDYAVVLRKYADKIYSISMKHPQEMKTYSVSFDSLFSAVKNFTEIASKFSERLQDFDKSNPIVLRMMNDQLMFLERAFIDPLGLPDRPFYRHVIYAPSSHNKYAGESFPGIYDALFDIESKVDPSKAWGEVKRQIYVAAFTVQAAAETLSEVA
Sequence of UniProt P46925 (whole entry, looked up): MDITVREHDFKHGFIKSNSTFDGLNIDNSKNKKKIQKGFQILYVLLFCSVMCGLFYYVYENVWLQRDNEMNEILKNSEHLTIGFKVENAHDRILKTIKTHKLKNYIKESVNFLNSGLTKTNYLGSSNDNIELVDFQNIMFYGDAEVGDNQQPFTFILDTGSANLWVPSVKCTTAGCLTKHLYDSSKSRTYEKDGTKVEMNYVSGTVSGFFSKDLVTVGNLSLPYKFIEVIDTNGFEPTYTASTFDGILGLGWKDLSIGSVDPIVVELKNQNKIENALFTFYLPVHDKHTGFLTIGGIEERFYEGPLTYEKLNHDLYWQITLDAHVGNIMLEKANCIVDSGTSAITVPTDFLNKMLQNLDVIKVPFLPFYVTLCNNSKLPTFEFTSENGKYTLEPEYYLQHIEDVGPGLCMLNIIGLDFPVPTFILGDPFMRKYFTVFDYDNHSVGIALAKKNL

CN(C[C@H](O)[C@@H](O)[C@H](O)[C@H](O)CO)C(=O)c1ccc(CN(Cc2ccccn2)Cc2ccccn2)nc1 — Ki (VIM-2): 24000 nM
CC(C)C[C@H](NC(=O)[C@@H]1CCCN1C(=O)[C@@H](N)CCCCN)C(=O)N[C@@H](CCC(=O)O)C(=O)N[C@H](CN[C@@H](Cc1ccccc1)C(=O)N[C@@H](CCCNC(=N)N)C(=O)N[C@H](C(=O)O)C(C)C)Cc1ccccc1 — Ki (Aspartic protease PM4 (Plasmodium vivax, UniProt O60989)): 0.6 ± 0.08 nM
CNCP(C)(=O)O — Ki (Urease subunit alpha (Sporosarcina pasteurii, UniProt P41020); enzyme activity, inhibitor): 18000 ± 700 nM
CCN1CCCC1CNC(=O)c1cc(Br)cc(OC)c1OC (centres unmarked) [carbon-11 labelled] — Ki (dopamine D2short receptor; together with: [3H]spiperone): 1.6 nM
CC1(C)S[C@@H]2CS[C@@H](CS)N2[C@H]1C(=O)O — Ki (Metallo-beta-lactamase type 2 (Serratia marcescens, UniProt P52699); inhibitor): 14000 ± 3000 nM
O=C1N[C@@H](Cc2ccccc2)C(=O)N2CCC[C@@H]2C(=O)N[C@@H](Cc2ccccc2)C(=O)N[C@H]1Cc1c[nH]c2ccccc12 — Ki (MOR opioid receptor; binding): 619 ± 87 nM
CC(O)CN1CCN(CCSC(c2ccc(F)cc2)c2ccc(F)cc2)CC1 (centres unmarked) — Ki (Sodium-dependent serotonin transporter (Slc6a4, Rattus norvegicus, UniProt P31652); binding; rat brain membranes): 213 ± 13.2 nM
O=C([O-])CN1CCN(CC(=O)[O-])CCN(CC(=O)NCC2CCC(C(=O)NC(Cc3ccc4ccccc4c3)C(=O)NCCCCC(NC(=O)NC(CCC(=O)O)C(=O)O)C(=O)O)CC2)CCN(CC(=O)[O-])CC1.[Lu+3] (centres unmarked) — Ki (Glutamate carboxypeptidase 2 (FOLH1, Homo sapiens, UniProt Q04609); LNCaP): 6.91 ± 1.32 nM
O=C(O)[C@H]1CS[C@@H]2CS[C@@H](CS)N12 — Ki (VIM-2; inhibitor): 3200 ± 400 nM
C=CC(=O)N1CCC[C@@H](n2nc(-c3cn(C)c4ccccc34)c3c(N)ncnc32)C1 — Ki (Epidermal growth factor receptor (EGFR, Homo sapiens, UniProt P00533, L858R/T790M)): 16 ± 5.2 nM
C#CCN(C)Cc1cc2cc(OCCCN3CCCCC3)ccc2n1C — Ki (sigma 1 receptor; agonist): 65.2 nM
CCCC[C@@H](C(=O)N[C@@H](CC(=O)O)C(=O)N[C@@H](Cc1ccccc1)C(N)=O)N(C)C(=O)[C@@H](Cc1c[nH]c2ccccc12)NC(=O)CNC(=O)[C@@H](Cc1ccccc1)NC(=O)[C@@H](N)Cc1ccc(O)cc1 — Ki (µ-opioid receptor; binding): 5.7 nM
COC(=O)C1C(OC(c2ccc(Cl)cc2)c2ccc(Cl)cc2)CC2CCC1N2C (single isomer, unassigned) — Ki (norepinephrine transporter): 2150 ± 325 nM
CC(C)[C@H](NC(=O)[C@@H]1CCCN1C(=O)[C@@H](N)CCCCN)C(=O)N[C@@H](CCC(=O)O)C(=O)N[C@H](CN[C@@H](CCCNC(=N)N)C(=O)N[C@@H](CCC(N)=O)C(=O)N[C@H](C(=O)O)[C@@H](C)O)Cc1ccccc1 — Ki (Plasmepsin II (Plasmodium falciparum, UniProt P46925)): > 20000 nM
